Measurements pooled from the literature.
Compare with care: the assays were run in different laboratories. Several values in a cell are separate wells, animals, samples, runs or records. Numbers after ± are the reported error.

O=C(NN=Cc1ccc(C[n+]2ccccc2)cc1)c1ccc2ccc3ccc(C(=O)NN=Cc4ccc(C[n+]5ccccc5)cc4)nc3c2n1.[Br-].[Br-]
delta Tm (human telomeric G-quadruplex DNA; UV melting; 3 µM, 100 mM potassium, added: DNA 3 µM): 0.7 °C

C#CCOc1cc(C(=O)Nc2cc(OCCCN)c3ccccc3n2)nc(C(=O)Nc2cc(OCCCN)c3ccccc3n2)c1
delta Tm (double-stranded DNA; FRET melting; 1 µM, pH 7.4, 60 mM potassium, added: oligonucleotide 200 nM): 0 ± 0.1 K

c1coc(-c2n[nH]cc2-c2ccnc3ccccc23)c1
log2 fold change (STE11 (Candida albicans); kinase binding, MIB/MS competition; Candida albicans lysate; 1 µM; reference: DMSO): -0.15

CC[C@@H]1[C@H](F)C(=O)N[C@@H]1COc1nccc2cc(C(N)=O)c(OC)cc12
IC50 (Aurora A, B, C kinases; ATP-site binding, ActivX kinase profiling; THP-1 cell lysate; ATP-loop probe peptide): 2.8 µM

CN(C)CCCOc1cc(NC(=O)c2cc(Cl)cc(C(=O)Nc3cc(OCCCN(C)C)c4ccccc4n3)n2)nc2ccccc12
ΔTm (c-kit2 G-quadruplex DNA; FRET melting; 1 µM, pH 7.4, added: 60 mM potassium): 9.7 ± 0.5 K

F[C@@H]1CCN(c2nccc(-c3cnn4ncccc34)n2)C1
remaining binding (human kinase panel; KINOMEscan; concentration not given; reference: control): 100% and 82%

N#Cc1ccc2c(-c3ccncc3)c(-c3ccc(F)cc3)nn2c1
log2 fold change (orf19.4575 kinase Candida albicans; MIB/MS competition binding; Candida albicans cell lysate; 10 µM; reference: DMSO, lower = stronger binding): -0.179

Nc1nc2c(nc(Br)n2[C@@H]2O[C@@H]3COP(=O)(O)O[C@H]3[C@H]2O)c(=O)[nH]1
steady-state current (cone CNG channel; striped bass (Morone saxatilis), cone outer segment; 30 µM, -35 mV): -415 ± 107 pA

COc1c(/C=C/c2cc(C(=O)Nc3ccc(OC4CCN(C)CC4)c(C(F)(F)F)c3)ccc2C)cnc2[nH]ccc12
inhibition (ABL/ARG kinases (human); KiNativ profiling; Huh-7 cell lysate; 1.0 µM): > 85%

NCCCOc1cc(NC(=O)c2cc(Cl)cc(C(=O)Nc3cc(OCCCN)c4ccccc4n3)n2)nc2ccccc12
ΔTm (c-kit2 G-quadruplex DNA; FRET melting; 1 µM, pH 7.4, added: 60 mM potassium): 17.3 ± 0.3 K

Cc1n[nH]c2ccc(-c3cc(OC[C@@H](N)Cc4ccccc4)cnc3-c3ccoc3)cc12
log2 fold change (orf19.4575 kinase Candida albicans; MIB/MS competition binding; Candida albicans cell lysate; 10 µM; reference: DMSO, lower = stronger binding): -2.61

CC(=O)N[C@H](C(=O)N1C[C@H](O)C[C@H]1C(=O)NCc1ccc(-c2scnc2C)cc1)C(C)(C)SCCCCCCNC(=O)C[C@@H]1N=C(c2ccc(Cl)cc2)c2c(sc(C)c2C)-n2c(C)nnc21
relative protein abundance (human DYNC1H1; TMT proteomics; HeLa; 3 µM, 24 h; reference: DMSO): 0.939

O=C(CCCCCCC(=O)Nc1ccc([C@H]2O[C@@H](CSc3nc(-c4ccccc4)c(-c4ccccc4)o3)C[C@@H](c3ccc(CO)cc3)O2)cc1)NO
viability (OCI-Ly1; 0.5 µM, 120 h): 147%

NCCOc1cc(NC(=O)c2cccc(C(=O)Nc3cc(OCCN)c4ccccc4n3)n2)nc2ccccc12
delta Tm (double-stranded DNA; FRET melting; 1 µM, pH 7.4, 60 mM potassium, added: oligonucleotide 200 nM): 0 ± 0.1 K

Fc1ccccc1Nc1nc(NCC2CCCO2)c2ccccc2n1 (centres unmarked)
inhibition (Trypanosoma cruzi ribosome; translation, measured: Renilla luciferase; Trypanosoma cruzi extract; 40 µM): 79%

c1ccc(-c2n[nH]cc2-c2ccnc3ccccc23)nc1
log2 fold change (orf19.4575 kinase Candida albicans; MIB/MS competition binding; Candida albicans cell lysate; 100 nM; reference: DMSO, lower = stronger binding): 1.35

NCCOc1cc(C(=O)Nc2cc(OCCN3CCCC3)c3ccccc3n2)nc(C(=O)Nc2cc(OCCN3CCCC3)c3ccccc3n2)c1
delta Tm (double-stranded DNA; FRET melting; 1 µM, pH 7.4, 60 mM potassium, added: oligonucleotide 200 nM): 0.4 ± 0.1 K

Oc1ccccc1-c1n[nH]cc1-c1ccnc2ccccc12
log2 fold change (KNS1 (Candida albicans); kinase binding, MIB/MS competition; Candida albicans lysate; 10 µM; reference: DMSO): 0.31

CN(C)CCOc1cc(NC(=O)c2cc(Cl)cc(C(=O)Nc3cc(OCCN(C)C)c4ccccc4n3)n2)nc2ccccc12
delta Tm (double-stranded DNA; FRET melting; 1 µM, pH 7.4, 60 mM potassium, added: oligonucleotide 200 nM): 0 ± 0.1 K

O=C1Nc2ccc(Cl)cc2[C@@](C#CC2CC2)(C(F)(F)F)O1
IC90 (HIV-1; viral replication; human immunodeficiency virus 1): 0.00324 µM

CN(C)CCCOc1cc(NC(=O)c2cccc(C(=O)Nc3cc(OCCCN(C)C)c4ccccc4n3)n2)nc2ccccc12
delta Tm (double-stranded DNA; FRET melting; 1 µM, pH 7.4, 60 mM potassium, added: oligonucleotide 200 nM): 0.8 ± 0.3 K

CCN1CCN(Cc2ccc(NC(=O)c3ccc(C)c(/C=C/c4cnc5[nH]ccc5c4OC)c3)cc2)CC1
inhibition (ABL/ARG kinases (human); KiNativ profiling; Huh-7 cell lysate; 1.0 µM): > 80%

CCCCCC(O)C(CC=O)SC[C@H](NC(C)=O)C(=O)O (some centres unmarked)
kcat (porcine kidney aminoacylase 1; substrate; without Co2+): 0.004 s⁻¹

COc1cc2c(NC3CCN(C(C)C)CC3)nc(C3CCCCC3)nc2cc1OCCCN1CCCC1
viability (OCI-Ly1; 1 µM, 120 h): 177%

Cc1cnn2ncc(-c3ccnc(N(C)C)n3)c2c1
remaining binding (human kinase panel; KINOMEscan; concentration not given; reference: control): 100% and 87% and 95% and 83%

CN(C)CCCn1c(=O)c2cc(Br)c3c(=O)n(CCCN(C)C)c(=O)c4c5[nH]c6ncccc6[nH]c5c(c1=O)c2c34
ΔTm (double-stranded DNA; FRET melting; 0.25 µM, K+ 100 mM): 1.1 ± 0.6 °C

Cc1ccc(C(=O)NCc2ccsc2)cc1C#Cc1cn(C(C)C)c2ncnc(N)c12
remaining activity (myosin light chain kinase (human); enzyme activity; 1 µM, added: ATP at Km): 99%

Cc1cc(C)c(Nc2ccnc(Nc3ccc(C#N)cc3)n2)c(C)c1
IC90 (HIV-1; viral replication; human immunodeficiency virus 1): 0.0385 µM

C[C@H](CCC(C)(C)O)[C@H]1CC[C@H]2[C@@H]3CC=C4C[C@@H](O)CC[C@]4(C)[C@H]3CC[C@]12C
potentiation (NMDA receptor, rat; ion current, potentiator; rat hippocampal neurons; 2 µM, added: NMDA 1 mM): 78.7 ± 8.83%

CN(C)CCCn1c(=O)c2ccc3c(=O)n(CCCN(C)C)c(=O)c4c5[nH]c6ccccc6[nH]c5c(c1=O)c2c34
ΔTm (double-stranded DNA; FRET melting; 0.25 µM, K+ 100 mM): 1.5 ± 0.1 °C

O=C(Nc1cc(OCCN2CCCC2)c2ccccc2n1)c1cc(OCCN2CCCC2)cc(C(=O)Nc2cc(OCCN3CCCC3)c3ccccc3n2)n1
ΔTm (human telomeric G-quadruplex DNA; FRET melting; 1 µM, pH 7.4, added: 60 mM potassium): 35.5 ± 0.8 K

CC(Nc1nc(N2CCCC2)nc2ccccc12)c1ccccc1 (centres unmarked)
cells with nuclear reporter (importin α/β1; cMyc nuclear import, high content imaging; HeLa Kyoto reporter; 3.17 µM, 2 h): 89.7% and 99%

Some of these lines once more:
CN(C)CCCn1c(=O)c2ccc3c(=O)n(CCCN(C)C)c(=O)c4c5[nH]c6ccccc6[nH]c5c(c1=O)c2c34
ΔTm (double-stranded DNA; FRET melting; 0.25 µM, K+ 100 mM): 1.5 ± 0.1 °C

O=C(Nc1cc(OCCN2CCCC2)c2ccccc2n1)c1cc(OCCN2CCCC2)cc(C(=O)Nc2cc(OCCN3CCCC3)c3ccccc3n2)n1
ΔTm (human telomeric G-quadruplex DNA; FRET melting; 1 µM, pH 7.4, added: 60 mM potassium): 35.5 ± 0.8 K

CC(Nc1nc(N2CCCC2)nc2ccccc12)c1ccccc1 (centres unmarked)
cells with nuclear reporter (importin α/β1; cMyc nuclear import, high content imaging; HeLa Kyoto reporter; 3.17 µM, 2 h): 89.7% and 99%
